Measured values pooled from the literature.
Every numbered part comes from another study and shows a few of its results, in no order.
UniProt P16234, sequence (whole entry, looked up): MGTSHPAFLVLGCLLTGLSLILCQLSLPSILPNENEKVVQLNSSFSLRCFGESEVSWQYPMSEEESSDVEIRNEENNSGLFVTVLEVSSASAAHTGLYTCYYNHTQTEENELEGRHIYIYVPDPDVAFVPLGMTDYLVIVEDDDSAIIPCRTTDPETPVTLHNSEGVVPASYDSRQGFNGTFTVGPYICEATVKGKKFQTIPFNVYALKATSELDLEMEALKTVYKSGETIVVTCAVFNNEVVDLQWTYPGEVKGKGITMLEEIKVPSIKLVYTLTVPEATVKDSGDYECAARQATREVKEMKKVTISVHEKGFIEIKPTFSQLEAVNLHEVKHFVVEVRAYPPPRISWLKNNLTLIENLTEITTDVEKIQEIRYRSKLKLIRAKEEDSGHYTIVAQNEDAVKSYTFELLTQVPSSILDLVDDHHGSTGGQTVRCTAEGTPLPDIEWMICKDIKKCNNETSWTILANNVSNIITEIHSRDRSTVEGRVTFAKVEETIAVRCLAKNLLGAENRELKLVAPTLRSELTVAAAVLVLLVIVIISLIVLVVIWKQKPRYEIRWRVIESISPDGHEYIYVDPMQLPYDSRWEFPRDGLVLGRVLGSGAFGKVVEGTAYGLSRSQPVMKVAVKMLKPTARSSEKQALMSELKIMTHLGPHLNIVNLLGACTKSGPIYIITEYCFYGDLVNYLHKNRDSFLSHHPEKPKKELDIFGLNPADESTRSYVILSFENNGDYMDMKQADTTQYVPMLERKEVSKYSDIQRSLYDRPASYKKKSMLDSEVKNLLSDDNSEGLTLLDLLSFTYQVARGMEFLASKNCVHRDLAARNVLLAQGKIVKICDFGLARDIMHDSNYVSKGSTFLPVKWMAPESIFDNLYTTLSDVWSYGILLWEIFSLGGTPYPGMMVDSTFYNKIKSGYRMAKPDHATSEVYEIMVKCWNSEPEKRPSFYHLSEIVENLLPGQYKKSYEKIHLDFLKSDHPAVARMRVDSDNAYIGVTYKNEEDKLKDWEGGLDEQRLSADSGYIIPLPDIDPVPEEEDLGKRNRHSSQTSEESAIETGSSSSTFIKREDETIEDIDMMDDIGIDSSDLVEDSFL

Set 1 — technique: aptamer microarray, sandwich; form: DNA with 2'F-ANA; sample: in vitro; concentration: 200 nM; with: Cy3 exosite-II aptamer, 400 nM; direction: higher = stronger binding; oligonucleotide: GGTTGGTGTGGTTGG
Target: Prothrombin, mature alpha-thrombin (F2, Homo sapiens, UniProt P00734)
Notes: whole 15-mer aptamer, many near background
Under “mean fluorescence intensity”, `2'F-ANA at 3 5 6 8 9 10 11 13 15` is recorded as 82.9 a.u.
`2'F-ANA at 1 2 3 5 6 10 11 13 14` — result for “mean fluorescence intensity”: 50.6 a.u.
`2'F-ANA at 1 4 5 6 7 8 11 13 15`: “mean fluorescence intensity” 47.7 a.u.
Under “mean fluorescence intensity”, `2'F-ANA at 1 2 4 5 7 13` is recorded as 50.7 a.u.
For `2'F-ANA at 1 7 8 10 11 12 15`, “mean fluorescence intensity” read 67.2 a.u.
For `2'F-ANA at 1 2 4 7 8 9 10 11 13 14 15`, “mean fluorescence intensity” read 50.8 a.u.
For `2'F-ANA at 3 5 6 7 11 12 15`, “mean fluorescence intensity” read 243 a.u.
`2'F-ANA at 1 3 4 11 13 14` — result for “mean fluorescence intensity”: 69.1 a.u.

Set 2 — technique: protein-binding microarray; form: double-stranded DNA, one strand shown; sample: in vitro; concentration: 250 nM; notes: 60-bp whole probe; with: salmon DNA 0.4 mg/ml; baseline: random background probes; direction: higher = stronger binding; constant ends, left off below: GCCTAGCAC … GTCTTGATTCGCTTGACGCTGCTG
Target: Interferon regulatory factor 7, full length, phosphomimetic (IRF7, Homo sapiens, UniProt Q92985, residues 1-503, S101K/S471D/S472D/S475D/S476D/S477D/S483D/S484D/S487D)
UniProt Q92985, sequence (whole entry, unmodified, looked up): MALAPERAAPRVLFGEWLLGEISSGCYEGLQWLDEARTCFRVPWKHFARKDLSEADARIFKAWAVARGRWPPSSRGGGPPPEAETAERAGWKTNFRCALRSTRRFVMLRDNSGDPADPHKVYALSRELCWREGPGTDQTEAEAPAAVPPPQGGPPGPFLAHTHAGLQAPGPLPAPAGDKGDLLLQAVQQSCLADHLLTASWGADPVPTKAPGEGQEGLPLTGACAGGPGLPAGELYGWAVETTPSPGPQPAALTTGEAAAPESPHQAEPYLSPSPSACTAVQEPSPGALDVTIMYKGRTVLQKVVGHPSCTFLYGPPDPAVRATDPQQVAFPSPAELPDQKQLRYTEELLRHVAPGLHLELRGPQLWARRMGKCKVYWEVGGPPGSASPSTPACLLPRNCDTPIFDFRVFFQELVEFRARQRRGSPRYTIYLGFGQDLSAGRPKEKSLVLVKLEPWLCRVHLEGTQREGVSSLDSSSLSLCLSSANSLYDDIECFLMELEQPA
`TTAGGTTTCGGGACGGGGTTAGTGCTA` gave a log fluorescence of 4.81 z-score.
The log fluorescence of `TTATGTTTCGGGACTGGGTTAGTGCTA` is reported as 1.47 z-score.
The log fluorescence of `TTAGGTCTCGACTATCGGTTAGTGCTA` is reported as 0.854 z-score.
`GACAGTTTCGGGTATCGGGACGTGCTA` has a log fluorescence of 6.61 z-score.
`CACTTTCTTTACTTCACTCTGTGCTAG` has a log fluorescence of 2 z-score.
The log fluorescence of `TTAGGTTTCGGTCCCGGTTAGTGCTAG` is reported as 5.62 z-score.
With `TTAGAACTGCGTTTCGATTAGTGCTAG` the log fluorescence was 2.67 z-score.
For `GGCGGTCTCCTTATCCTGACGTGCTAG`, the log fluorescence was -0.253 z-score.

Set 3 — technique: RNA Bind-n-Seq; form: RNA; sample: in vitro; concentration: 200 nM; notes: whole 134-nt RNA, ends assumed; with: 150 mM LiCl; baseline: input library; direction: higher = stronger binding; each molecule: 7-deaza-guanosine replaces G
Target: Fragile X messenger ribonucleoprotein 1, C-terminal low-complexity region (Fmr1, Mus musculus, UniProt P35922)
Constant ends, left off below: GGGAGUUCUACAGUCCGACGAUC … UGGAAUUCUCGGGUGUCAAGG
For `UGGCCCUGGUGGCAUGCGGGGAGGAAGAGGUGGCCUCAUGGAUCGUGGUGGUCCCGGUGGAAUGUUCAGAGGUGGCCGUGGUGCAGACAG`, the log2 enrichment was -1.05.
With `AGUCCUGUGCUACACAUCGUAUGUACCGAAUCGGUUUUUUUGGAAAGGAAAAAAAGGAAAGUAUUAUGUUACGCCGUUCGGAUCUGCACU` the log2 enrichment was -2.76.
For `UGGGAGGUGGAUUUUGUUUAUUUUUUUAGCUCUUUUCCAGGGGUGGGAAUUUUUUUUUAAUAUGUGUCAUGAAUAAAGUUGUUUUUGAAA`, the log2 enrichment was 0.853.
With `GCAGGAAGUAAAAACAAAUGGAAAUGCUUCGGAUAGUGGCAGGGGUGGGGGUUGCUAAGGAAAGGAUGGGAUGGGAGUGGGUAAAGAGUU` the log2 enrichment was 1.48.
With `CUGUGCUACACAUCGUAUGUACCGAAUCGGGAAAAAAAGGGAAAAAAAGGGGAAAAAAAGGAAAGUAUUAUGUUACGCCGUUCGGAUCUG` the log2 enrichment was 0.28.
The log2 enrichment of `AAGUCCUGUGCUACACAUCGUAUGUACCGAAUCGGUUUUUGGUUUUUGGGUUUUUGGAAAGUAUUAUGUUACGCCGUUCGGAUCUGCACU` is reported as -1.54.
`UAACUUUAGAGGAGGAUCUGAUGGGUAUGGCAGUGGACGUGGAUUUGGGGAUGGCUAUAAUGGGUAUGGAGGAGGACCUGGAGGUGGCAA` has a log2 enrichment of 0.607.
`ACCAUGCAGGUGGGCAUCUUUGGGAAGUGGGCCAAGGGGGGGAUAGGGAGGGGGGUAACACUUUGGGAACAGGUGGUCCCAGGUCGUUUC` gave a log2 enrichment of 1.17.

Single results of other studies
`N#C/C(=C(/N)SC1C=CC=CC1)c1cccc(C(O)c2ccncc2)c1` (stereo not shown) has a remaining activity of 107% (Platelet-derived growth factor receptor alpha (PDGFRA, Homo sapiens, UniProt P16234); enzyme activity, inhibitor; 0.5 µM; baseline: control).

For quick reference, copied from above (set 2):
`TTAGGTTTCGGGACGGGGTTAGTGCTA` gave a log fluorescence of 4.81 z-score.
`GACAGTTTCGGGTATCGGGACGTGCTA` has a log fluorescence of 6.61 z-score.
The log fluorescence of `TTAGGTCTCGACTATCGGTTAGTGCTA` is reported as 0.854 z-score.
